Published values from different studies.
Numbered parts are unrelated; each lists some results of a single study. Substitutions count along the parent as printed.

Sample 1
Target: ABI1, truncated, D143A, DHFR fusion (Arabidopsis thaliana)
Method: DHFR PCA, deep sequencing
Sample: yeast
Setting: methotrexate growth selection, single substitutions
Together with: (+)-ABA 0.0091 µM
Relative to: wild-type fitted maximum
Direction: higher = stronger binding
Starting sequence: PYL1, truncated, DHFR fusion (Arabidopsis thaliana); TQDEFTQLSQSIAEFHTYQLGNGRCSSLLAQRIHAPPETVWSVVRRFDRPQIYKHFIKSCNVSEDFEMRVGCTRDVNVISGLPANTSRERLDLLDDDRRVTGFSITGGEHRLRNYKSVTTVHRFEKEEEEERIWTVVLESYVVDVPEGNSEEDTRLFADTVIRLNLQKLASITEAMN; partner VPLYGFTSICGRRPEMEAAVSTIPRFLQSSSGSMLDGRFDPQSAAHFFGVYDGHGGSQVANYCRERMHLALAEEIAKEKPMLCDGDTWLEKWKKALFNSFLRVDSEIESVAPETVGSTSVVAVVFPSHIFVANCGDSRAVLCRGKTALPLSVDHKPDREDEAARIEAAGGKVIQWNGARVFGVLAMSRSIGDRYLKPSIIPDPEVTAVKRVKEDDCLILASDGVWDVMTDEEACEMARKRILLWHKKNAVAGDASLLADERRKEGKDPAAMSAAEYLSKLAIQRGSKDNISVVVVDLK
Change	relative binding score [%]
A175M	11.9
G71V	-1.37
S140Y	6.95
F157T	-1.08
A175H	14
T73W	16.8
F103K	-6.73
K58V	4.49
R123Q	71.5

Sample 2
Target: Fragile X messenger ribonucleoprotein 1, C-terminal low-complexity region (Fmr1, Mus musculus, UniProt P35922)
Method: RNA Bind-n-Seq
Form: RNA
Sample: in vitro
Tested at: 200 nM
Setting: whole 134-nt RNA, ends assumed
Together with: 150 mM LiCl
Relative to: input library
Direction: higher = stronger binding
Each molecule: 7-deaza-guanosine replaces G
Shared flanks, not repeated: GGGAGUUCUACAGUCCGACGAUC … UGGAAUUCUCGGGUGUCAAGG
Oligonucleotide	log2 enrichment
UCAAGUCCUGUGCUACACAUCGUAUGUACCGAAUCGGGGUUGGGGUUGGGUUGGGAAAGUAUUAUGUUACGCCGUUCGGAUCUGCACUUC	-0.851
CACAGACAACACGAAACCACACAGACACAGAGGGAAGGGGUUGGGAUGGGGACAGGGUGCACAGCAGGGCGGGGUAGGACCCCAGCCCCU	1.05
UGGCCCUGGUGGCCUGCGGGGAGGAAGAGGUGGCCUCAUGGAUCGUGGUGGUCCCGGUGGAAUGUUCAGAGGUGGCCGUGGUGGAGACAG	0.268
CCUGUGCUACACAUCGUAUGUACCGAAUCGGGGAGGGGAAAAAAAGGGGAAAAAAAGGGGAAAGUAUUAUGUUACGCCGUUCGGAUCUGC	0.786
GCAGGAAGUAAAAACAAAUGGAAAUGCUUCGGAUAGUGGCAGGGGUGGGGGUUGCUAAGGAAAGGGUGGGAUGGGAGUGGGUAAAGAAAU	1.54
UGGGAGGUGGAUUUUGUUUAUUUUUUUAGCUCAUUUCCAGGUGUGGGAAUUUUUUUUUAAUAUGUGUCAUGAAUAAAGUUGUUUUUGAAA	-0.432
CAAGUCCUGUGCUACACAUCGUAUGUACCGAAUCGGGGAAGGGGAAGGGGAAGGGAAAGUAUUAUGUUACGCCGUUCGGAUCUGCACUUC	-0.0432
UGGGAGGUGGGUUUUGUUUAUUUUUUUAGCUCAUUUCCAGGGGUGGGAAUUUUUUUUUAAUAUGUGUCAUGAAUAAAGUUGUUUUUGAAA	-1.38

Sample 3
Target: CCNB1, cyclin fold, Cln2 fusion (human)
Method: yeast growth competition, sequencing
Sample: yeast
Setting: strong parent motif
Relative to: not given
Direction: higher = stronger binding
Starting sequence: E2F1 docking peptide (human); PPVKRRLDFETDH
Change	normalised enrichment score
D12T	4.79
D8L	4.36
F9A	0.305
R6E	2.66
D12N	5.06
F9C	0.281

Further values, each from its own experiment
Molecule	target	test	system	setting	scale	measurement	result
PhoQ, residues 284 288 289 292 302 303 SVHLDV	PhoP, residues 12 14 15 18 19 NQGLL (Escherichia coli, UniProt P23836)	Sort-seq, measured: YFP reporter	E. coli	PhoQ-PhoP variant library, together with: 10 µM Mg2+	relative to: high Mg2+ state, higher = stronger signaling	fold induction	1.96
